Experimental data pooled from the literature.
Compare with care: the assays were run in different laboratories. ± marks the error that the study gave.
Melanocortin receptor 4: Melanocortin receptor 4 (Mus musculus, UniProt P56450)
Oprd1: Delta-type opioid receptor (Oprd1, Rattus norvegicus, UniProt P33533)
histidine kinase ComD: histidine kinase ComD (Streptococcus pneumoniae serotype 4, UniProt A0A0H2US84)
GLP1R: Glucagon-like peptide 1 receptor (GLP1R, Homo sapiens, UniProt P43220)

SMILES	target	assay	test system	conditions	EC50 [µM]
CNC(C)CCc1ccccc1Cl (racemic)	DRD3 (Homo sapiens, UniProt P35462)	GTPγS binding, agonist, radiometric		cell membranes	1.28
CC(=O)N[C@@H](CCCNC(=N)N)C(=O)N[C@@H](CCCNC(=N)N)C(=O)N[C@@H](C(=O)N1Cc2ccccc2C[C@H]1C(N)=O)[C@@H](c1ccccc1)c1c[nH]c2ccccc12	Melanocortin receptor 4	cAMP, agonist, AlphaScreen			> 100
Cc1cc(O)cc(C)c1CC(N)C(=O)NC1CCNc2c1cc(Cc1ccccc1)cc2C(F)(F)F (centres unmarked)	Oprd1	GTPγS binding, agonist, radiometric		cell membranes	0.05
CC(C)C[C@@H]1NC(=O)[C@H](Cc2ccc(O)cc2)NC(=O)[C@H](CC(N)=O)NC(=O)[C@H](CO)NC(=O)[C@@H](NC(=O)[C@@H](NC(=O)[C@H](CC(N)=O)NC(=O)[C@H](Cc2ccc(O)cc2)NC(=O)[C@@H](N)CCCCN)C(C)C)CSC1=O	Accessory gene regulator protein C (Staphylococcus epidermidis, UniProt Q8VSX2)				> 2
CC[C@H](C)[C@H](NC(=O)[C@H](Cc1ccccc1)NC(=O)[C@@H]1CCCNC(=O)NCCC[C@H](NC(=O)[C@H](CO)NC(=O)[C@H](CC(C)C)NC(=O)[C@H](CCCNC(=N)N)NC(=O)[C@H](CCSC)NC(=O)[C@H](C)N)C(=O)N[C@@H](Cc2ccccc2)C(=O)N[C@@H](Cc2ccccc2)C(=O)N[C@@H](CCCNC(=N)N)C(=O)N1)C(=O)N[C@@H](CC(C)C)C(=O)N[C@@H](CCC(N)=O)C(=O)N[C@@H](CCCNC(=N)N)C(=O)N[C@@H](CCCCN)C(=O)N[C@@H](CCCCN)C(=O)O	histidine kinase ComD		Streptococcus pneumoniae		> 1
CC[C@H](C)[C@@H]1NC(=O)[C@@H](NC(=O)[C@H](CCC(=O)O)NC(=O)[C@H](CCCNC(=N)N)NC(=O)CNC(=O)[C@H](CO)NC(=O)[C@H](CC(C)C)NC(=O)[C@H](CCCNC(=N)N)NC(=O)[C@@H](NC(=O)CNC(=O)[C@H](Cc2ccc(O)cc2)NC(=O)[C@@H]2CCCN2C(=O)[C@H](C)NC(=O)[C@H](C)NC(=O)[C@@H](N)CCCNC(=N)N)C(C)C)CCCCNC(=O)C[C@@H](C(=O)N[C@H](C(=O)N[C@@H](Cc2ccccc2)C(=O)N[C@H](C(=O)N[C@@H](CO)C(=O)NCC(=O)NCC(=O)N[C@@H](CO)C(=O)N[C@@H](CCCNC(=N)N)C(=O)N[C@@H](Cc2c[nH]c3ccccc23)C(=O)O)[C@@H](C)O)[C@@H](C)CC)NC(=O)[C@H](C)NC(=O)[C@H](CCCNC(=N)N)NC1=O	RXFP3 (Homo sapiens, UniProt Q9NSD7)	cAMP, agonist			1.07
Cc1cc(O)cc(C)c1CC(N)C(=O)NC1CCNc2c(Cc3ccccc3)cc(Cc3ccccc3)cc21 (centres unmarked)	Oprd1	GTPγS binding, agonist, radiometric		cell membranes	0.38
CC[C@H](C)[C@H](NC(=O)[C@H](Cc1ccccc1)NC(=O)[C@H](Cc1c[nH]cn1)NC(=O)[C@@H](NC(=O)[C@H](CCC(N)=O)NC(=O)[C@H](CCCNC(=N)N)NC(=O)[C@@H](NC(=O)[C@@H](N)CCC(=O)O)[C@@H](C)CC)[C@@H](C)O)C(=O)N[C@@H](Cc1ccccc1)C(=O)N[C@@H](Cc1ccccc1)C(=O)N[C@@H](Cc1ccccc1)C(=O)N[C@@H](Cc1ccccc1)C(=O)N[C@@H](Cc1ccccc1)C(=O)N[C@@H](CCCCN)C(=O)N[C@@H](CCCNC(=N)N)C(=O)N[C@@H](CCCNC(=N)N)C(=O)O	histidine kinase ComD	reporter gene, agonist	Streptococcus pneumoniae, TIGR4 comX::lacZ	30 min, pH 7.3, 37 °C	> 10
CC[C@H](C)[C@H](N)C(=O)N[C@@H](CC(N)=O)C(=O)N[C@H]1CSC(=O)[C@H](CC(C)C)NC(=O)[C@H](CC(C)C)NC(=O)[C@H](Cc2ccccc2)NC(=O)[C@H](CC(N)=O)NC1=O	Accessory gene regulator protein C (Staphylococcus aureus, UniProt O33590)				0.967
CC[C@H](C)[C@H](NC(=O)[C@H](Cc1ccccc1)NC(=O)[C@H](C)NC(=O)[C@H](C)NC(=O)[C@H](Cc1ccccc1)NC(=O)[C@H](Cc1ccccc1)NC(=O)[C@H](C)NC(=O)[C@H](C)NC(=O)[C@H](CC(C)C)NC(=O)[C@H](CCCNC(=N)N)NC(=O)[C@H](CCSC)NC(=O)[C@@H](N)CCC(=O)O)C(=O)N[C@@H](C)C(=O)N[C@@H](C)C(=O)N[C@@H](CCCNC(=N)N)C(=O)N[C@@H](CCCCN)C(=O)N[C@@H](CCCCN)C(=O)O	histidine kinase ComD		Streptococcus pneumoniae		> 1
CC[C@H](C)[C@H](NC(=O)[C@H](CC(N)=O)NC(=O)[C@H](CC(N)=O)NC(=O)[C@H](CCCNC(=N)N)NC(=O)[C@H](CC(N)=O)NC(=O)[C@H](CCCNC(=N)N)NC(=O)[C@H](CCCCN)NC(=O)[C@@H](NC(=O)[C@H](CC(N)=O)NC(=O)[C@H](CCSC)NC(=O)[C@H](CC(C)C)NC(=O)[C@H](Cc1c[nH]c2ccccc12)NC(=O)[C@H](CS)NC(=O)[C@@H](NC(=O)[C@H](Cc1ccccc1)NC(=O)[C@H](CC(=O)O)NC(=O)[C@H](CCC(N)=O)NC(=O)[C@H](C)NC(=O)[C@H](CCCNC(=N)N)NC(=O)[C@H](CS)NC(=O)[C@H](CO)NC(=O)[C@H](CC(=O)O)NC(=O)[C@H](CC(C)C)NC(=O)[C@H](Cc1ccc(O)cc1)NC(=O)[C@H](CCCCN)NC(=O)[C@H](CO)NC(=O)[C@H](Cc1ccc(O)cc1)NC(=O)[C@H](CC(=O)O)NC(=O)[C@H](CO)NC(=O)[C@@H](NC(=O)[C@H](Cc1ccccc1)NC(=O)[C@@H](NC(=O)CNC(=O)[C@H](CCC(N)=O)NC(=O)[C@@H](CO)NC(=O)[C@@H](N)Cc1c[nH]cn1)[C@@H](C)O)[C@@H](C)O)C(C)C)[C@@H](C)O)C(=O)N[C@@H](C)C(N)=O	GLP1R	reporter gene, agonist, luciferase			~0.5
CC(C)[C@H](NC(=O)[C@H](CC(N)=O)NC(=O)[C@H](Cc1ccc(O)cc1)NC(=O)[C@@H](N)CCCCN)C(=O)N[C@H]1CSC(=O)[C@H](Cc2ccccc2)NC(=O)[C@H](Cc2ccc(O)cc2)NC(=O)[C@H](CO)NC(=O)[C@H](C)NC1=O	Accessory gene regulator protein C (Staphylococcus epidermidis, UniProt Q8VSX2)				0.0406
Nc1ncnc2c1ncn2C1OC(COP(=O)(O)OP(=O)(O)OCC2OC(O)C(O)C2O)C(O)C1O (centres unmarked)	TRPM2 (Nematostella vectensis, UniProt A7T1N0, Y264A)	channel activation, activator, inside-out patch clamp		Y264A mutant, currents not saturated, added: 125 µM Ca2+ and 2.5 µM PIP2	1870 ± 936
CC[C@H](C)[C@H](NC(=O)[C@H](CO)NC(=O)[C@H](Cc1ccc(O)cc1)NC(=O)[C@H](CC(=O)O)NC(=O)[C@H](CO)NC(=O)[C@@H](NC(=O)[C@H](Cc1ccccc1)NC(=O)[C@@H](NC(=O)CNC(=O)[C@H](CCC(=O)O)NC(=O)C(C)(C)NC(=O)[C@@H](N)Cc1ccc(O)cc1)[C@@H](C)O)[C@@H](C)CC)C(=O)N[C@@H](C)C(=O)N[C@@H](CCSC)C(=O)N[C@@H](CC(=O)O)C(=O)N[C@@H](CCCCN)C(=O)N[C@H](C(=O)N[C@@H](Cc1c[nH]cn1)C(=O)N[C@@H](CCC(N)=O)C(=O)N[C@@H](CCC(N)=O)C(=O)N[C@@H](CC(=O)O)C(=O)N[C@@H](Cc1ccccc1)C(=O)N[C@H](C(=O)N[C@@H](CC(N)=O)C(=O)N[C@@H](Cc1c[nH]c2ccccc12)C(=O)N[C@@H](CC(C)C)C(=O)N[C@@H](CC(C)C)C(=O)N[C@@H](C)C(=O)N[C@@H](CCC(N)=O)C(=O)N[C@@H](CCCCN)C(=O)NCC(=O)N[C@@H](CCCCN)C(=O)N[C@@H](CCCCN)C(=O)N[C@@H](CC(N)=O)C(=O)N[C@@H](CC(=O)O)C(=O)N[C@@H](Cc1c[nH]c2ccccc12)C(=O)N[C@@H](CCCCN)C(=O)N[C@@H](Cc1c[nH]cn1)C(=O)N[C@@H](CC(N)=O)C(=O)N[C@H](C(=O)N[C@H](C(=O)N[C@@H](CCC(N)=O)C(=O)O)[C@@H](C)O)[C@@H](C)CC)C(C)C)[C@@H](C)CC	GIPR (Homo sapiens, UniProt P48546)	reporter gene, agonist, luciferase			3.9e-06
CC[C@H](C)[C@H](NC(=O)[C@H](Cc1ccccc1)NC(=O)[C@H](CCC(=O)O)NC(=O)[C@H](CCCCN)NC(=O)[C@H](C)NC(=O)[C@H](C)NC(=O)[C@H](CCC(N)=O)NC(=O)CNC(=O)[C@H](CCC(=O)O)NC(=O)[C@H](CC(C)C)NC(=O)[C@H](Cc1ccc(O)cc1)NC(=O)[C@H](CO)NC(=O)[C@H](CO)NC(=O)[C@@H](NC(=O)[C@H](CC(=O)O)NC(=O)[C@H](CO)NC(=O)[C@@H](NC(=O)[C@H](Cc1ccccc1)NC(=O)[C@@H](NC(=O)CNC(=O)[C@H](CC(C(F)(F)F)C(F)(F)F)NC(=O)[C@H](C)NC(=O)[C@@H](N)Cc1c[nH]cn1)[C@@H](C)O)[C@@H](C)O)C(C)C)C(=O)N[C@@H](C)C(=O)N[C@@H](Cc1c[nH]c2ccccc12)C(=O)N[C@@H](CC(C)C)C(=O)N[C@H](C(=O)N[C@@H](CCCCN)C(=O)NCC(=O)N[C@@H](CCCNC(=N)N)C(N)=O)C(C)C	GLP1R	agonist			0.002
CC[C@H](C)[C@H](NC(=O)[C@H](Cc1ccccc1)NC(=O)[C@H](CCC(=O)O)NC(=O)[C@H](CCCCN)NC(=O)[C@H](C)NC(=O)[C@H](C)NC(=O)[C@H](CCC(N)=O)NC(=O)CNC(=O)[C@H](CCC(=O)O)NC(=O)[C@H](CC(C)C)NC(=O)[C@H](Cc1ccc(O)cc1)NC(=O)[C@H](CO)NC(=O)[C@H](CO)NC(=O)[C@@H](NC(=O)[C@H](CC(=O)O)NC(=O)[C@H](CO)NC(=O)[C@@H](NC(=O)[C@H](Cc1ccccc1)NC(=O)[C@@H](NC(=O)CNC(=O)N(CCC(=O)O)NC(=O)[C@H](C)NC(=O)N(N)Cc1c[nH]cn1)[C@@H](C)O)[C@@H](C)O)C(C)C)C(=O)N[C@@H](C)C(=O)N[C@@H](Cc1c[nH]c2ccccc12)C(=O)N[C@@H](CC(C)C)C(=O)N[C@H](C(=O)N[C@@H](CCCNC(=N)N)C(=O)NCC(=O)N[C@@H](CCCNC(=N)N)C(=O)NCC(=O)O)C(C)C	GLP1R	cAMP reporter gene, agonist, CRE-luciferase	BHK cells expressing receptor		> 0.01
CCCCCn1c2ccccc2c2cc(C(=O)c3ccncc3)ccc21	CNR1 (Homo sapiens, UniProt P21554)	GTPγS binding, agonist, radiometric		cell membranes	1.66
CC(=O)N[C@H](CCCNC(=N)N)C(=O)N[C@@H](Cc1ccc(O)cc1)C(=O)N[C@@H](CCCNC(=N)NC(=O)NCCCCN)C(=O)N[C@@H](CC(C)C)C(=O)N[C@@H](CCCNC(=N)N)C(=O)N[C@@H](Cc1ccc(O)cc1)C(N)=O	NPY4R (Homo sapiens, UniProt P50391)	β-arrestin 1 recruitment, agonist	HEK293T		2.16 ± 0.6
CCN(Cc1ccccc1)C(=O)CCc1nc(CN2CCN(C(=O)Cc3ccc(OC)c(OC)c3)CC2)no1	KCNQ4 (Homo sapiens, UniProt P56696)	ion current, opener, whole-cell patch clamp	CHO stably expressing channel		0.19 ± 0.02
C[C@@H]1NC(=O)[C@H](CC(N)=O)NC(=O)[C@H](Cc2c[nH]c3ccccc23)NC(=O)[C@H](CCCNC(=N)N)NC(=O)[C@@H](Cc2ccccc2)NC(=O)[C@H](Cc2c[nH]cn2)NC(=O)[C@@H](NC(=O)[C@@H](N)Cc2ccc(O)cc2)CCCn2nncc2-c2cccc(c2)-c2cnnn2CCC[C@@H](C(=O)N[C@@H](Cc2ccc(O)cc2)C(N)=O)NC(=O)[C@H](Cc2ccccc2)NC1=O	Melanocortin receptor 4	agonist			0.539 ± 0.154
